Published values collected from several papers.
Protocols differ between the studies behind these lines. Numbers after ± are the reported error.

Structure (SMILES) = CC(=O)N[C@@H](CCCNC(=N)N)C(=O)NCCOCCOCC(=O)N[C@H](C)C(=O)N1CCC[C@H]1B(O)O; assay = plasma clot lysis; system = normal human plasma; setting = 50 µM, 72 h, 29 °C, at half lysis, with: uPA; measurement = reduction of clot lysis time; value = 7%
Structure (SMILES) = COc1ccc(C2CC(c3ccc(C)cc3)=Nc3ccccc3S2)cc1 (centres unmarked); system = Wistar rat, STZ-induced diabetes, serum; setting = 20 mg/kg, 28 days; measurement = ALT (SGPT); value = 21.1 ± 2.71 IU/L
Structure (SMILES) = CC(C)(O)c1ccc(N2Cc3c(ccnc3-c3ccc(F)cc3OCC(F)(F)F)C2=O)cc1; system = mouse, cerebral cortex; setting = 300 mg/kg, 6 h; scale = relative to: vehicle; measurement = glucosylceramide level; value = 40 ± 3%
Structure (SMILES) = Cc1cc2c(NC(=O)N[C@@H]3CC(C)(C)Oc4c(OC(F)(F)F)cccc43)cccc2cn1; system = rat osteoarthritis pain model, plasma; measurement = efficacious plasma concentration; value = 0.5 µg/mL
Structure (SMILES) = Cc1cc2c(cc1O)C=C1C=CC(=O)C(C)(C)[C@H]1CC2; system = mouse AOM/DSS colitis-associated cancer; setting = 50 mg/kg; measurement = small intestine adenomas per mouse; value = 4.2
Structure (SMILES) = CCCCCCCCCn1cc(C(N)(CO)CO)nn1; system = APP/PS1 mouse, cortical, hippocampal microglia; setting = dose not given; measurement = ceramide level; value = no effect
Structure (SMILES) = CC(=O)N[C@@H](CC(N)=O)C(=O)NCC(=O)N[C@@H](CCCNC(=N)N)C(=O)N[C@@H](C)C(N)=O; assay = 1H NMR; system = sodium phosphate buffer 50 mM; setting = pH 7.4, 37 °C; measurement = rate constant succinimide to β-Asp; value = 1.29 h⁻¹
Structure (SMILES) = CC(CCC(=O)NCc1ccc(C(=O)NO)cc1)C1CCC2C3C(O)CC4CC(O)CCC4(C)C3CCC12C (centres unmarked); assay = immunoblot; system = PCK rats, liver; setting = dose not given; scale = relative to: untreated; measurement = acetylated α-tubulin level; value = increased
Structure (SMILES) = COc1ccc(C2CC(c3ccc(C)cc3)=Nc3ccccc3S2)cc1OC (centres unmarked); system = Wistar rat, STZ-induced diabetes, serum; setting = 20 mg/kg, 28 days; measurement = ALT (SGPT); value = 20.1 ± 2.12 IU/L
Structure (SMILES) = NC[C@@H](C(=O)Nc1ccc(-c2cn[nH]c2)cc1)c1ccccc1; system = NZW rabbits, magnetic bead-induced ocular hypertension; setting = topical, 0.1 %; measurement = mean IOP reduction; value = 22%
Structure (SMILES) = Cc1nc(C)c(C=[N+]([O-])C(C)(C)C)nc1C; assay = Western blot, item: MEF2D; system = MPTP mouse model, substantia nigra cytosol; setting = 90 mg/kg; measurement = increase in protein level; value = 63.6%
Structure (SMILES) = CCC1CC2C(C)=CC3C(=O)CCCC3C=CC(C)=CC2C(=O)O1 (centres unmarked); assay = western blot; system = PS19 mouse (MAPT P301S), hippocampus; setting = oral, 30 mg/kg, 3 weeks; scale = relative to: vehicle; measurement = synaptophysin level increase; value = 10.4%
Structure (SMILES) = CC(C)(CCCC/C=C/CCCCCC(C)(C)C(=O)O)C(=O)O; system = rhesus monkey, spontaneous hyperlipidemia; setting = 20 mg/kg, 2 weeks; scale = relative to: baseline; measurement = reduction in plasma ApoB100; value = 20.9%
Structure (SMILES) = CCCCCCCCCCCCCC(=O)N1CCC[C@H]1C(=O)N[C@@H](CO)C(=O)N[C@@H](CCC(N)=O)C(=O)N[C@@H](CO)C(=O)N[C@@H](CCCCNC(=O)c1ccc(Br)cc1)C(=O)N[C@@H](CO)C(=O)N[C@@H](CCCCNC(=O)c1ccc(Br)cc1)C(=O)N[C@@H](C)C(=O)O; system = female SCID mouse, MDA-MB-231 fat pad xenograft, tumour; setting = intratumoral, dose not given, alternate days for one month; scale = relative to: vehicle; measurement = Ki67-positive cells reduction; value = ~5 fold
Structure (SMILES) = CC[C@@H](C)N([11CH3])C(=O)c1nc(-c2ccc(Cl)cc2)c2ccccc2n1; assay = binding, PET; system = rhesus monkey, cerebellum; setting = dose not given; scale = relative to: baseline minus preblock VT; measurement = specific volume of distribution; value = 22.3 mL/cm³
Structure (SMILES) = COc1cc(/C=C/C=C2\SC(=S)NC2=O)ccc1O; system = chicken embryo neural tube; setting = 10 µM; measurement = labelling time; value = < 30 min
Structure (SMILES) = C=C(c1cc(F)c(C(=O)O)c(F)c1)c1cc2c(cc1C)C(C)(C)CCC2(C)C; assay = RNA sequencing, item: Sfrp5; system = rat, brain; setting = dose not given, 24 h; scale = relative to: vehicle; measurement = log2 fold change; value = -0.27
Structure (SMILES) = CC(C)C[C@H](N)C(=O)N1CCC[C@H]1C(=O)NCC(=O)NCC(=O)O; assay = diketopiperazine formation, Arrhenius plot, ESI-MS; system = 1-propanol; setting = 70, 80, 90 °C, 0.5% acetic acid; measurement = ΔG‡ at 298.15 K; value = 23.2 ± 1.43 kcal/mol
Structure (SMILES) = CCc1nnc(NS(=O)(=O)c2ccc(NC(=S)NC(=O)/C=C/c3ccc(F)cc3)cc2)s1; system = NXS2 allograft, A/J mice, tumour; setting = intraperitoneal, 20 mg/kg daily, 3 weeks; scale = relative to: vehicle; measurement = cleaved PARP level; value = increased
Structure (SMILES) = N#Cc1cc(C(=O)OCC[18F])c(C(F)(F)F)nc1N1CCN(C(=O)Cc2ccccc2)CC1; assay = PET blocking; system = C57BL/6 mouse, brain; setting = 60 min, self-blocking; scale = relative to: baseline; measurement = decrease of SUV; value = 72.3%
Structure (SMILES) = CC(C)c1cnc(-c2cc(Cl)ccc2F)cc1Nc1ccncc1C(=O)NC(CO)CO; assay = flow cytometry, item: pSMAD2/3; system = patients, peripheral monocytes; setting = 375 mg; measurement = inhibition; value = 75%
Structure (SMILES) = CC1=C(C2=C(C)C(=O)c3c(cc(O)c(O)c3Cc3ccccc3)C2=O)C(=O)c2cc(O)c(O)c(Cc3ccccc3)c2C1=O (racemic); system = B6 Bcl-2-transgenic mouse; setting = intraperitoneal, 5 µmol/kg, maximal reduction; scale = relative to: control; measurement = spleen weight reduction; value = 45 ± 7%
Structure (SMILES) = COc1c2c(cc3oc(CO)cc(=O)c13)O[C@H](C(C)(C)O)C2; assay = analgesia; system = mouse; setting = oral, 2 mg/kg, 1 h; measurement = hot plate latency; value = 14 ± 1.75 s
Structure (SMILES) = CCCCCCOC(=O)Cc1c(C)n(C(=O)c2ccc(Cl)cc2)c2ccc(OC)cc12; assay = hot plate test; system = BALB/c mice; setting = 75 mg/kg, 60 min; measurement = latency of nociceptive response; value = 15.2 ± 0.38 s
Structure (SMILES) = NCC(=O)N1CCC[C@H]1C(=O)NCC(=O)NCC(=O)O; assay = diketopiperazine formation, Arrhenius plot, ESI-MS; system = 1-propanol; setting = 70, 80, 90 °C, 0.5% acetic acid; measurement = ΔG‡ at 298.15 K; value = 23.2 ± 1.91 kcal/mol
Structure (SMILES) = CC(=O)[O-].O.O.O.O.[Co+2].[O-]c1ccc(Br)cc1C=NCCN1CCOCC1; assay = DPPH radical scavenging; setting = 240 µM; measurement = inhibition; value = 70.1%
Structure (SMILES) = COC1C=CC=C(C)C(=O)NC2=CC(=O)C(NCCN(C)C)=C(CC(C)CC(OC)C(O)C(C)C=C(C)C1OC(N)=O)C2=O (centres unmarked); assay = GSEA; system = mouse, Rh30 xenograft; setting = dose not given; measurement = muscle gene signature; value = increased
Structure (SMILES) = Cn1cncn1.[Ru+2].c1cc(-c2ccc3ccccc3n2)nc(-c2ccc3ccccc3n2)c1.c1ccc2cc3nc4c5cccnc5c5ncccc5c4nc3cc2c1; system = M2 macrophages, BALB/c mouse bone marrow-derived; scale = relative to: dark EC50 over light EC50; measurement = phototherapeutic index; value = 10
Structure (SMILES) = CCOP(=O)(CC(=O)Nc1ccc(S(=O)(=O)N(CC(N)=O)c2ccc(N(CC(N)=O)S(=O)(=O)c3ccc(OC)cc3)c3ccccc23)cc1)OCC; assay = open field test; system = APP/PS1 mice; setting = intragastric, 40 mg/kg, 60 days, lentivirus intracerebroventricular; scale = relative to: untreated APP/PS1; measurement = central distance; value = increased
